Published values of several laboratories.
Each line is one published result; not all experiments were run side by side. ± marks the error that the study gave.
PGR: Progesterone receptor (PGR, Homo sapiens, UniProt P06401)
Sequence of UniProt Q9NZJ5 (whole entry, looked up): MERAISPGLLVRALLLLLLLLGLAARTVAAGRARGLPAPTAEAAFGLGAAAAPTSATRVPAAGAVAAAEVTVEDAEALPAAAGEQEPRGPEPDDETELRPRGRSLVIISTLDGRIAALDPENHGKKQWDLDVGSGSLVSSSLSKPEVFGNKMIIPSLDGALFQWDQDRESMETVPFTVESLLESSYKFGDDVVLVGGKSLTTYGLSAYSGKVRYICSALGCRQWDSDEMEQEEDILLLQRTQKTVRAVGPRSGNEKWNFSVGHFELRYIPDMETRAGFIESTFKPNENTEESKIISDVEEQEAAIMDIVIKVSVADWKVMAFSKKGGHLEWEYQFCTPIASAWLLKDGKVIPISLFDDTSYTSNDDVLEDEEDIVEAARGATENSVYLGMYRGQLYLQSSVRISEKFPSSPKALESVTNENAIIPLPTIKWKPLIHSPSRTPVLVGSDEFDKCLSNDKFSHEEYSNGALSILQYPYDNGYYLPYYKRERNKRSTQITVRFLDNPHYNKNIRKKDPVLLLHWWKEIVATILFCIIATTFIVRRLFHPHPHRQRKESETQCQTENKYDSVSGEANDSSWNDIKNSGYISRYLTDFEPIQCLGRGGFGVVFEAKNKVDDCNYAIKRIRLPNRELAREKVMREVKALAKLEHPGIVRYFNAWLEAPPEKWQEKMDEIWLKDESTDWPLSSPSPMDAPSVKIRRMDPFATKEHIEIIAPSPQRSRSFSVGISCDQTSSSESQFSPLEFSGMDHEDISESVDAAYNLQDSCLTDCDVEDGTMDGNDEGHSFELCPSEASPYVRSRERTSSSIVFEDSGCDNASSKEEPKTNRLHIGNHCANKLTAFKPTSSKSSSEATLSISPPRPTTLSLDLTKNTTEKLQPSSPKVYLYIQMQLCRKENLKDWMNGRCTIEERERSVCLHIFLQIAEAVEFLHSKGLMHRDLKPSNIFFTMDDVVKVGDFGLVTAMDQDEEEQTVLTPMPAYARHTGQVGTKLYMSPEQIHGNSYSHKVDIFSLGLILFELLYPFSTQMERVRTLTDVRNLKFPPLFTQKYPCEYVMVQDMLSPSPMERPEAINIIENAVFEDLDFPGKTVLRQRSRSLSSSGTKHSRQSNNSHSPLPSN
Sequence of UniProt Q9UL54 (whole entry, looked up): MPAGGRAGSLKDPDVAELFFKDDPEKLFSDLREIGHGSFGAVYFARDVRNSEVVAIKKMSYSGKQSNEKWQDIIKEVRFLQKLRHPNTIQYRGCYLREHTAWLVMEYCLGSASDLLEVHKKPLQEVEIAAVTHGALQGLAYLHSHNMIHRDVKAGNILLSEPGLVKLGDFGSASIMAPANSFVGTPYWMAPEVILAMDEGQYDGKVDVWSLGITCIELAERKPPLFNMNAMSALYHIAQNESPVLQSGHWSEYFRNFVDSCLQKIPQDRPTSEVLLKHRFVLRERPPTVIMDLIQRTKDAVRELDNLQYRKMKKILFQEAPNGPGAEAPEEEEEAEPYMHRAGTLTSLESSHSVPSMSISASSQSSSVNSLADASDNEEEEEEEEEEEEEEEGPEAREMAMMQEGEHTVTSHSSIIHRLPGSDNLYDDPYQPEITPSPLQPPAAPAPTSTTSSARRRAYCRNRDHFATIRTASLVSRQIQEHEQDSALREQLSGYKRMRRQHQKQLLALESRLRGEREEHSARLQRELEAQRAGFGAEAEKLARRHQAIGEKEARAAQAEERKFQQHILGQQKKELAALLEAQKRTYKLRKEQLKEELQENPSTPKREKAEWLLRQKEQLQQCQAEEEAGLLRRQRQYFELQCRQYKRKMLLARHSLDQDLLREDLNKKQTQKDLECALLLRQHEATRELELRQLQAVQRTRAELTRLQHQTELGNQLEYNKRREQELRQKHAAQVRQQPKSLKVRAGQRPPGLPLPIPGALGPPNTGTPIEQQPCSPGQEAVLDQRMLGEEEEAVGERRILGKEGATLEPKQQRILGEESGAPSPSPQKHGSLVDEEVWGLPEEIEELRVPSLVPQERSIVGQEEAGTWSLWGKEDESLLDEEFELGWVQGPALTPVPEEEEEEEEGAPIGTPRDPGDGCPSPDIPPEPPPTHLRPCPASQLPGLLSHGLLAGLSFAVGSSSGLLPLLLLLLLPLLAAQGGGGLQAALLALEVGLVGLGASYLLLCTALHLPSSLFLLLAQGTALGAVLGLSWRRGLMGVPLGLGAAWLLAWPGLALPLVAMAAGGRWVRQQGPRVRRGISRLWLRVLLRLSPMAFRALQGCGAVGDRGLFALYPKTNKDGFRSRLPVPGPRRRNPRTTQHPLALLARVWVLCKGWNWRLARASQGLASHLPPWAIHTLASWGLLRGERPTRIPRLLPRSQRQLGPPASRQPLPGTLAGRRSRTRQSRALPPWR
Sequence of UniProt P10721 (whole entry, unmodified, looked up): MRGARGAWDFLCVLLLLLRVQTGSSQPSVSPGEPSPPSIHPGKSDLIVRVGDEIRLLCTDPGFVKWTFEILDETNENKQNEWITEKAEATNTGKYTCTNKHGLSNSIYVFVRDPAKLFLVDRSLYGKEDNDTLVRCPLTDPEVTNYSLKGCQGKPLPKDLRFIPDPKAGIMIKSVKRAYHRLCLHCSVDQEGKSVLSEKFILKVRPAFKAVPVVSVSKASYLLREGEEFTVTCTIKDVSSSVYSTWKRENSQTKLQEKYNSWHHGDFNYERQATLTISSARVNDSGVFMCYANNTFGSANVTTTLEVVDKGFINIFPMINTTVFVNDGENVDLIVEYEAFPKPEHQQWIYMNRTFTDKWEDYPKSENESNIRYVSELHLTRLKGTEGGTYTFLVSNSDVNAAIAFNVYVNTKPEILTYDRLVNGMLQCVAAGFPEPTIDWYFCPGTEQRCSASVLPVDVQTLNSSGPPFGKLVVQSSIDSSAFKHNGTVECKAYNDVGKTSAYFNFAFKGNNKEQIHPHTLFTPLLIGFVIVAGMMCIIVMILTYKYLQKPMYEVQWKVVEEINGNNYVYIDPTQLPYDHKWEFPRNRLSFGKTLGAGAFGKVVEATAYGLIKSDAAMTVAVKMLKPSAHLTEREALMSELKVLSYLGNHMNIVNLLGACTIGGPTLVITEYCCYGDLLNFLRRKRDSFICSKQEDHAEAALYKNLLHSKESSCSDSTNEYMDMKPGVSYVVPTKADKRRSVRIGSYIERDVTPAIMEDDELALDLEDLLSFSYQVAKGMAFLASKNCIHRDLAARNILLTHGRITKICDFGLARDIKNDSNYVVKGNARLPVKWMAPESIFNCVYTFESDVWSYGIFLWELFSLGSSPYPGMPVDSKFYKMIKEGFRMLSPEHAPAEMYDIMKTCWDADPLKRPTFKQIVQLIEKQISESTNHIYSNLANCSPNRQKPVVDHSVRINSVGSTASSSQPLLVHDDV
Sequence of UniProt O00141 (whole entry, looked up): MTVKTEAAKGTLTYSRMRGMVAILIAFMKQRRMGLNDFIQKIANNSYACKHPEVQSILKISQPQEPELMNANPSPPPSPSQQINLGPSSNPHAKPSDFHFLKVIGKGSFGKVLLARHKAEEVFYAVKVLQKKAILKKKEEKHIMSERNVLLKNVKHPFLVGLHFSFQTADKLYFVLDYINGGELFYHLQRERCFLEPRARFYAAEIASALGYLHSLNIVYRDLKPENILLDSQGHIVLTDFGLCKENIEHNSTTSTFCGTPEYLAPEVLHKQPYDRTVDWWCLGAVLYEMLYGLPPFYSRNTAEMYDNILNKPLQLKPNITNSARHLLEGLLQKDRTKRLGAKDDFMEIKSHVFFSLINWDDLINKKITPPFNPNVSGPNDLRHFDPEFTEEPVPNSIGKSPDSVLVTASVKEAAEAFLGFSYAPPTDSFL
Sequence of UniProt P49760 (whole entry, looked up): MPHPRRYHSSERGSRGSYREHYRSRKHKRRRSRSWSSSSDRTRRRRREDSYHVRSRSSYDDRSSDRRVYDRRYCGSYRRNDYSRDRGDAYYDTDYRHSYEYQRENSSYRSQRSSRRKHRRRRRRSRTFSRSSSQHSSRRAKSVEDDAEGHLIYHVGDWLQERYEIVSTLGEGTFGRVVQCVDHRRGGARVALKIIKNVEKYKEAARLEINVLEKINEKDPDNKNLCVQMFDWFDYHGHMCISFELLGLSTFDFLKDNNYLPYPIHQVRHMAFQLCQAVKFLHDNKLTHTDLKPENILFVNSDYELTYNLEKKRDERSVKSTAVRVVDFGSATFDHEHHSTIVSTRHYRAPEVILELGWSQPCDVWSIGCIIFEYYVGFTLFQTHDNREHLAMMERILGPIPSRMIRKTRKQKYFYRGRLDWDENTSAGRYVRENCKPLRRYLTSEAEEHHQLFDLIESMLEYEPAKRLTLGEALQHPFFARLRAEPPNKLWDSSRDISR
Sequence of UniProt Q9Y271 (whole entry, looked up): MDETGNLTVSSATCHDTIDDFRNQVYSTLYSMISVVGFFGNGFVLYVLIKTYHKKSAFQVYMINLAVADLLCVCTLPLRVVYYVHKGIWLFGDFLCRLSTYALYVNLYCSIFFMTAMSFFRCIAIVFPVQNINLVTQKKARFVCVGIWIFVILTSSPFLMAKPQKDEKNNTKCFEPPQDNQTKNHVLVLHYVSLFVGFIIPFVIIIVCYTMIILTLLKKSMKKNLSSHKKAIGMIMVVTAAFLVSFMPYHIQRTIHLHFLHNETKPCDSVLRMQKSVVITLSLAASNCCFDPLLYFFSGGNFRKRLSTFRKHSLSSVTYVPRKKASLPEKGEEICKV

Structure (SMILES) = CC(C)[C@H]1NC(=O)C[C@H]2/C=C/CCSSC[C@@H](NC1=O)C(=O)N[C@H](Cc1cccc3ccccc13)C(=O)NCC(=O)O2; tested on = Mast/stem cell growth factor receptor Kit (KIT, Homo sapiens, UniProt P10721, V654A); assay = enzyme activity, inhibitor; setting = 10 µM; measurement = inhibition; result = -1.5%
Structure (SMILES) = CN[C@@H]1[C@H](O)[C@H](NC)[C@H]2O[C@]3(O)[C@H](O[C@@H]2[C@H]1O)O[C@H](C)C[C@H]3NC(=O)Cc1ccc(Cl)cn1; tested on = Cysteinyl leukotriene receptor 1 (CYSLTR1, Homo sapiens, UniProt Q9Y271); assay = ligand displacement, radioligand; setting = 10 µM; measurement = inhibition; result = 13%
Structure (SMILES) = CS(C)(=O)=Nc1ccc(-c2ccc(-c3nc4cc(O[C@@H]5CO[C@H]6[C@@H]5OC[C@H]6O)[nH]c4cc3F)cc2)cc1; tested on = Eukaryotic translation initiation factor 2-alpha kinase 3 (EIF2AK3, Homo sapiens, UniProt Q9NZJ5); assay = enzyme activity, inhibitor; setting = 10 µM; measurement = inhibition; result = 9%
Structure (SMILES) = O=C1NC2(CC2)COc2ncc(F)cc2[C@H]2COCCN2c2ccn3ncc1c3n2; system = Sprague-Dawley rat, male, serum; setting = oral, 10 mg/kg/day, end of treatment, 4-week subacute toxicity; measurement = serum hepatic lipase activity; result = 3.2 ± 0.8 U/L
Structure (SMILES) = C[C@H](NCc1ccc(-c2ccc(C(F)(F)F)cc2)cc1)C(N)=O; tested on = PGR; assay = radioligand binding, SafetyScreen panel; setting = 1 µM, added: 0.50 nM [3H]Progesterone; measurement = inhibition; result = -4%
Structure (SMILES) = COc1ccccc1-c1n[nH]c2nc(NC3CCN(C(=O)Cc4ccc(F)cc4F)CC3)ncc12; assay = bead binding, competition bead pull-down, item: LINJ.36.6910; system = Leishmania donovani axenic amastigote extract; setting = 10 µM; scale = reference: vehicle; measurement = relative abundance; result = 0.47
Structure (SMILES) = CN(C)[C@H]1C[C@@]23CC[C@@]4(O2)C(=CC[C@]2(C)[C@@H](c5ccc6ccncc6c5)CC[C@H]24)C=C3[C@@H](O)[C@@H]1O; tested on = Serine/threonine-protein kinase TAO2 (TAOK2, Homo sapiens, UniProt Q9UL54); assay = ATP probe labelling, inhibitor, KiNativ profiling; setting = 0.1 µM; measurement = inhibition; result = 9.8%
Structure (SMILES) = COc1ccc(F)cc1S(=O)(=O)Nc1cnc2c(c1)C(=O)NCCO2; tested on = PGR; assay = radioligand binding, inhibitor; setting = 10 µM; measurement = inhibition; result = -3%
Structure (SMILES) = O=C(O)c1ccccc1/C=N/Nc1nc(-c2ccccc2Cl)cs1; tested on = Tyrosine-protein kinase receptor UFO (AXL, Homo sapiens, UniProt P30530); assay = enzyme activity, inhibitor; setting = 1 µM; measurement = inhibition; result = -11.9%
Structure (SMILES) = N[C@H](C(=O)N1CCCC1)C1CCN(c2nccc3c(-c4ncc(Cl)cc4Cl)cccc23)CC1; tested on = Serine/threonine-protein kinase Sgk1 (SGK1, Homo sapiens, UniProt O00141); assay = kinase activity, inhibitor; setting = 10 µM, added: ATP 1 mM; measurement = inhibition; result = -3.4%
Structure (SMILES) = O=C1NC(=O)c2c1c1cc(F)c[n+]3c1c1c2c2cc(O)ccc2[n]1[Ru-4]312([N]=C=S)[S+]3CC[S+]1CC[S+]2CC3 (stereo not drawn); tested on = Dual specificity protein kinase CLK2 (CLK2, Homo sapiens, UniProt P49760); assay = enzyme activity; setting = 100 nM, human enzyme, added: 10 µM ATP; scale = reference: untreated; measurement = remaining activity; result = 1%
Structure (SMILES) = CC[C@H](C)[C@H](NC(=O)[C@H](CO)NC(=O)[C@H](Cc1ccc(O)cc1)NC(=O)[C@H](Cc1ccc(O)cc1)NC(=O)[C@H](CC(N)=O)NC(=O)CNC(=O)[C@H](CO)NC(=O)[C@H](Cc1ccc(O)cc1)NC(=O)[C@H](CO)NC(=O)[C@H](CO)NC(=O)[C@H](CC(N)=O)NC(=O)COCCOCCNC(=O)CN1CCN(CC(=O)O)CCN(CC(=O)O)CCN(CC(=O)O)CC1)C(=O)N[C@@H](CC(C)C)C(N)=O [copper-64 labelled]; assay = dynamic PET; system = KPC mouse Ptf1a-CreER tdTomato, metastases; setting = intravenous, 4.6 MBq/mouse, 7.5 min, 84 d after tamoxifen; measurement = tissue uptake; result = 14.8 %ID/mL
